Results from different studies.
Numbered parts are unrelated; each lists some results of a single study.

Series 1
Target: Histone acetyltransferase KAT6A, winged helix 2, GST fusion (KAT6A, Homo sapiens, UniProt Q92794, residues 85-181)
Method: protein binding microarray
Molecule type: double-stranded DNA, one strand shown
Medium: in vitro
Concentration: not given
Notes: 8-mer, flanks averaged, mean of 2 arrays, mostly near background
Baseline: not given
Reading: higher = stronger binding
Target sequence (chain): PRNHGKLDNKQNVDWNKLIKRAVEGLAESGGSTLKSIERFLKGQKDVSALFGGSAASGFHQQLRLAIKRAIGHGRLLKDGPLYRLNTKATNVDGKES
| Strand | E-score |
| --- | --- |
| GCAATAAC | 0.104 |
| GCGGGGAC | 0.15 |
| TTGGCAAA | 0.117 |
| ATCTTCTC | -0.0484 |
| AAGTGCTC | -0.107 |
| GAGACCGC | 0.0322 |
| CAAGGATA | -0.0726 |
| GGAGTACA | -0.0274 |
| AACGAACT | 0.00417 |
| CAGTATAA | 0.0679 |
| GCAAGCAA | 0.0519 |
| ACTCTCAT | -0.171 |
| AGGTTACT | -0.00628 |
| CTCCAGTC | -0.0254 |
| AATGCTGG | -0.00177 |
| GTTAGAAC | 0.0435 |
| ATAATTTA | 0.115 |
| GCCATAAC | -0.134 |
| CTGTGCGC | 0.0698 |
| CGTCCCGC | 0.295 |
| GTTAAAGA | -0.0763 |
| CCGCAGCC | 0.133 |
| GCCCTACA | -0.0495 |
| AAAGCCGT | 0.126 |
| ACCCGCGA | 0.0943 |

Series 2
Target: Sal-like protein 4, full length isoform B (SALL4, Homo sapiens, UniProt Q9UJQ4-2, residues 1-616)
Method: universal PBM
Molecule type: double-stranded DNA, one strand shown
Medium: in vitro
Concentration: not given
Notes: 8-mer, flanks averaged, mean of replicates
Reading: higher = stronger binding
Construct (chain): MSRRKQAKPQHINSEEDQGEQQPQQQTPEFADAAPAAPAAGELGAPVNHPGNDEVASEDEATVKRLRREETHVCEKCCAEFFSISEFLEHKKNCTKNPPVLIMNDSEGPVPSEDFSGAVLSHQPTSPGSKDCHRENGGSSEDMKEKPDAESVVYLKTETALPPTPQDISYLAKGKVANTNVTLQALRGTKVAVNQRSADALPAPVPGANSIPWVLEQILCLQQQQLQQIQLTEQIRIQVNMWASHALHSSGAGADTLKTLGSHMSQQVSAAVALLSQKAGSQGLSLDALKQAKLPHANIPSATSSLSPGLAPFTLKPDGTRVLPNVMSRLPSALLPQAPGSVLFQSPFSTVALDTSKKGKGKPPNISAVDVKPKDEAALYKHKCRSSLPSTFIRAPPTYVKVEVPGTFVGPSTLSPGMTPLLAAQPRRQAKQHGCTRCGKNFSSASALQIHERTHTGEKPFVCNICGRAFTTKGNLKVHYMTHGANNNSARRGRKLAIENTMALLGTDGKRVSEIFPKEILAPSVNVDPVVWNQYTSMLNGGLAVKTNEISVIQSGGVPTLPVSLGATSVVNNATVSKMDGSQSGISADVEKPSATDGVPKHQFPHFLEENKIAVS
| Strand | E-score |
| --- | --- |
| CCTGTGTA | 0.192 |
| CAGTATGC | -0.022 |
| CAGTAAGC | -0.0903 |
| CATCGAAA | 0.0863 |
| CAGCTGCA | -0.103 |
| AGCCCGTC | -0.39 |
| CGTCTTCC | -0.164 |
| AGAGGTTA | 0.206 |
| AGATTTCA | 0.192 |
| GACCGATC | -0.12 |
| ACAATCCG | -0.0449 |
| AGTCAACT | -0.0736 |
| CCTCAAAA | 0.0764 |
| GGGCTCAA | -0.164 |
| CCACGTGA | -0.0706 |
| ATTCAATG | 0.217 |
| GACAATCC | -0.0373 |
| AGTCAGAA | -0.0328 |
| CTCACGAA | 0.0044 |
| CCGCCAGG | -0.375 |
| TAGAGGAA | 0.108 |
| ATAGTTGG | 0.0927 |
| CGTCCCTA | -0.101 |
| ATAAATCA | 0.333 |
| AAAACCTC | 0.0629 |

Series 3
Target: PABPC1L2, full length, GST fusion (mouse, UniProt A0ABA7IW68)
Method: RNAcompete
Molecule type: RNA
Medium: in vitro
Concentration: 20 nM
Notes: 7-mer, probes averaged, single round
Baseline: mean of 7-mers
Reading: higher = stronger binding
Residues (chain): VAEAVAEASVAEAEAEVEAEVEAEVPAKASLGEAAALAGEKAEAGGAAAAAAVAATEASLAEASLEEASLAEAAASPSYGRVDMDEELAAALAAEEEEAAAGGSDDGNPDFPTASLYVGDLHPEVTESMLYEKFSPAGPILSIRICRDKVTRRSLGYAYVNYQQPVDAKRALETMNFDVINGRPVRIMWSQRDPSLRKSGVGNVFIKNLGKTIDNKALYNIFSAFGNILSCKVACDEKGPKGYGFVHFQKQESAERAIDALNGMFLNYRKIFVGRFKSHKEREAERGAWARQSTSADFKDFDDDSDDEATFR
| Strand | 7-mer Z-score |
| --- | --- |
| UUUCAUC | -0.383 |
| GUGGCAA | 0.321 |
| UCGGAGC | 0.117 |
| UAAGGGA | 0.193 |
| UAGAGAC | 0.124 |
| GGCCAUU | -0.079 |
| ACUUUGG | -0.151 |
| UAAUGGG | 0.066 |
| CCUCGGC | -0.289 |
| UGAACAC | -0.115 |
| CACAAGC | -0.115 |
| UGCCGCG | -0.271 |
| CAGAGGA | 0.251 |
| CUCACUG | -0.3 |
| GUCCGAU | -0.186 |
| GUAUGGU | -0.222 |
| CUCGCCA | -0.365 |
| UUGUAAA | 0.602 |

Series 4
Target: RNA binding protein fox-1 homolog 2, RRM domain, GST-SBP tag (RBFOX2, Homo sapiens, UniProt O43251-10, residues 100-194)
Method: RNA Bind-n-Seq
Molecule type: RNA
Medium: in vitro
Concentration: 365 nM
Notes: natural RNA segment, single round, ends assumed
Baseline: no-protein control
Reading: higher = stronger binding
Construct (chain): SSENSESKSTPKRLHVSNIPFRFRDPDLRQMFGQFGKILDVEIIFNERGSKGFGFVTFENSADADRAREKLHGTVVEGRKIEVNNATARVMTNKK
| Strand | RBNS enrichment (R) |
| --- | --- |
| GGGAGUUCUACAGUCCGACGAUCAGGGUCCUUGGUCUCUUCAGGCCCUGAGCGGGGUCAGGCACUGGGACGCCUUCCCCGCCCUCGAGGCUUCCCGGCUCUCAGAGGCUCCUUUUUUCUCUCCUGCUCCAGGCUGGAAUUCUCGGGUGCCAA | 0.457 |
| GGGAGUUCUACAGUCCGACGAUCUACAGGGCCCAUGCAAGUCCGAAAUCCAGCAGGGCUGUCAAAUUUUAAAGUUCCAGAAUAAUCUCCUUUGACUCCAGGUCUCACAUCCAGGUCAUACUGAUGCAAGAAGUUGGAAUUCUCGGGUGCCAA | 0.255 |
| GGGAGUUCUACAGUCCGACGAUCUUCUGUAUACGUAAUUACUCCUGAUUUUCUGAAAUUGCUUCUGGUAGAUAACAGACAAGUCCUAAGCAGUGUUCCACUAAGGGUGGUUCCAGGCCUGCCUGCCGUGGAGUUGGAAUUCUCGGGUGCCAA | 0.721 |
| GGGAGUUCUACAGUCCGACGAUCCCCCAACUACAGCUGGAGACGGGGCCAGCUCGGCGGCCUGCUGGUCCUCUGCUUGCUGGAACAUUCUAACAUUUACACUUUUGUUAUAAGCUAUUUAAAACCAGUAAGGAUGGAAUUCUCGGGUGCCAA | 0.567 |
| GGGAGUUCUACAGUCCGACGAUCUAUAGUUAUGAAACUAUCAAUCAAGGUGUUAUAUUUCAGUCAGAAGUGAAAAUUUAUGAAGAGUAUUUGGAAGUGUGUACAGAAAUAAACUAGACUUACAGGUAGGCUAGUGGAAUUCUCGGGUGCCAA | 0.574 |
| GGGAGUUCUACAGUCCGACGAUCACAACAGUUCCUGGCCCAAAAAAUCCAUAGAAAGAGGUAACUAGUGGCAGAUUUGGGGCGCCAACCUGAUUUUAUGGAUUUUGAGUUAGAUUCUCUACCCUCUAUCAAUAUGGAAUUCUCGGGUGCCAA | 1.05 |
| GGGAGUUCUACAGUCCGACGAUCCCUUUCGGGCUCCUUUUUUAGGUGGUGGGAUUGAGUCCCUACUAGCUCGGAAGGCCUUGAGAGGGCUGAUGGGGAAGUCACUGAGGAUGAAUCUGUCAUCUCAGGCAAUAUGGAAUUCUCGGGUGCCAA | 0.653 |
| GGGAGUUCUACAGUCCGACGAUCCCCAAGGUUAUAAGGCCUUGUCUUUCUCUUUGGAAUCAUAAAGUGGAACAGAGUCCCCAGAACUCAUGUGGCCAUUUCCGCCAGCAUCACUCCCCGGUGCCUAUGGGGUCUGGAAUUCUCGGGUGCCAA | 0.174 |
| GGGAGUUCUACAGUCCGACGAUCGUGUAUGGUUAAACUGUAAAUCUUAUGUUUACAAAAUACUGUAAUUUUCAGGAAAUCACUGUAUUAGGAAUGUGCAAUGACUUAUAUAAAUAAAAGCCAUUUUUAAAACUUGGAAUUCUCGGGUGCCAA | 0.461 |
| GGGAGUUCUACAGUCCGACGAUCUAAUUUUUGUAUUUUUAAUAAAGACGGGGUUUCAUCAUGUUGGCCAGGGUGGUCUCGAUCUCUUGACCUCGUGAUCCGCCCGCCUCAGCAUCCCAAAGUGCUGGGAUUACUGGAAUUCUCGGGUGCCAA | 0.299 |
| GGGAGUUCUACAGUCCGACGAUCGCACAGUUCAAAGUUCUGGCUUCUGGACUCUGCAGUCCAGGUCUCCCUUCUCCCACUUGCCUACCCUCAAUGCCACACUGUUUUUGAAGUGGCCCAUAACUUGAAGGAAAUGGAAUUCUCGGGUGCCAA | 0.436 |
| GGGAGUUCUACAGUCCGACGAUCCCAUGUCCUAGCCUGUCUGCAUUUGUUAGUGGUAAUAUUCUUUAUGUAUAAUAAAUUUUUAUACCCAGCCAUUGAUGUACUUUUCCUUGUACUCUCCCUUGUGGGUCCCUUGGAAUUCUCGGGUGCCAA | 0.681 |
